Assay results gathered from unrelated publications.
Compare with care: the assays were run in different laboratories.
Organism: Enterococcus faecium

SMILES | test | system | conditions | scale | MIC
CC[C@H](C)[C@H](NC(=O)[C@H](CCCCN)NC(=O)[C@H](CCCCN)NC(=O)CNC(=O)[C@H](CCCCN)NC(=O)[C@H](CC(C)C)NC(=O)[C@H](CCCCN)NC(=O)[C@H](CCCNC(=N)N)NC(=O)[C@@H](NC(=O)[C@H](CC(C)C)NC(=O)[C@H](CCCNC(=N)N)NC(=O)[C@@H](N)CCCNC(=N)N)[C@@H](C)CC)C(=O)N[C@@H](Cc1ccc(O)cc1)C(=O)N[C@@H](CC(C)C)C(=O)N[C@@H](Cc1ccc(O)cc1)C(=O)N[C@@H](Cc1ccccc1)C(=O)N[C@@H](CCCCN)C(=O)N[C@@H](CC(C)C)C(=O)N[C@@H](CCC(N)=O)C(=O)N[C@@H](CC(C)C)C(=O)N[C@@H](CC(C)C)C(=O)N[C@@H](CCCCN)C(=O)N[C@@H](CCCCN)C(N)=O | – | ATCC 51559, vancomycin-resistant, Mueller-Hinton broth | 24 h | – | 4 µM
CCCCCCC#Cc1cncc(-c2nnc(SCc3cc([N+](=O)[O-])cc([N+](=O)[O-])c3)n2CCCN)c1 | broth microdilution | ATCC 51559 MDR VRE | 18 to 24 h, 37 °C | – | 16 µg/mL
CC[C@H](C)[C@H](N)C(=O)N[C@@H](CCCNC(=N)N)C(=O)N[C@H](C(=O)N[C@@H](Cc1c[nH]c2ccccc12)C(=O)N[C@@H](Cc1c[nH]c2ccccc12)C(=O)N[C@@H](CCCCN)C(=O)N[C@H](C(=O)N[C@H](C(=O)N[C@@H](CCCNC(=N)N)C(=O)N[C@@H](CCCCN)C(=O)N[C@@H](Cc1c[nH]c2ccccc12)C(=O)N[C@@H](CCCCN)C(=O)N[C@@H](C)C(=O)N[C@H](C(=O)N[C@@H](Cc1c[nH]c2ccccc12)C(=O)N[C@@H](Cc1c[nH]cn1)C(N)=O)[C@@H](C)CC)C(C)C)[C@@H](C)CC)C(C)C | broth dilution | KCTC 13225 | – | – | 25 µM
Oc1c(Cl)cc(Cl)cc1-c1[nH]c(Cl)c(Cl)c1Cl | – | ATCC 6569 | – | – | 4 µM
CN[C@H](CC(C)C)C(=O)N[C@H]1C(=O)N[C@@H](CC(N)=O)C(=O)N[C@H]2C(=O)N[C@H]3C(=O)N[C@H](C(=O)N[C@H](C(=O)O)c4cc(O)cc(O)c4-c4cc3ccc4O)[C@H](O)c3ccc(c(Cl)c3)Oc3cc2cc(c3O[C@@H]2O[C@H](CO)[C@@H](O)[C@H](O)[C@H]2O[C@H]2C[C@](C)(N)[C@H](O)[C@H](C)O2)Oc2ccc(cc2Cl)[C@H]1O | – | vancomycin-susceptible | – | – | 0.5 µg/mL
CC[C@H](C)[C@H](NC(=O)[C@H](CC(C)C)NC(=O)[C@H](CCCNC(=N)N)NC(=O)[C@@H](N)CCCNC(=N)N)C(=O)N[C@@H](CC(C)C)C(=O)N[C@H](C(=O)N[C@@H](CCCCN)C(=O)N[C@H](C(=O)NCC(=O)N1CCC[C@H]1C(=O)N[C@H](C(=O)N[C@H](C(=O)N[C@@H](Cc1ccc(O)cc1)C(=O)N[C@@H](CCCCN)C(=O)N[C@@H](Cc1ccc(O)cc1)C(=O)N[C@@H](Cc1ccccc1)C(=O)N[C@@H](CCCCN)C(=O)N[C@@H](CCCCN)C(=O)N[C@@H](CCC(N)=O)C(=O)N[C@@H](CC(C)C)C(=O)N[C@@H](CC(C)C)C(=O)N[C@@H](CCCCN)C(=O)N[C@@H](CC(C)C)C(N)=O)[C@@H](C)CC)[C@@H](C)CC)[C@@H](C)O)[C@@H](C)O | – | ATCC 51559, vancomycin-resistant, Mueller-Hinton broth | 24 h | – | 8 µM
CC[C@H](C)[C@H](NC(=O)[C@H](CCCCN)NC(=O)[C@@H](NC(=O)[C@H](Cc1ccc(O)cc1)NC(=O)[C@H](CCCCN)NC(=O)[C@H](CCCCN)NC(=O)CNC(=O)[C@H](CCCCN)NC(=O)[C@@H](NC(=O)[C@H](C)NC(=O)[C@H](CC(C)C)NC(=O)[C@H](Cc1c[nH]c2ccccc12)NC(=O)CNC(=O)[C@@H](NC(=O)[C@H](Cc1ccccc1)NC(=O)[C@H](CCCCN)NC(=O)[C@H](CC(C)C)NC(=O)[C@H](Cc1ccccc1)NC(=O)[C@H](C)NC(=O)CNC(=O)[C@@H](N)CCSC)C(C)C)[C@@H](C)O)C(C)C)C(=O)N[C@@H](C)C(=O)N[C@@H](Cc1c[nH]c2ccccc12)C(=O)N[C@@H](CC(=O)O)C(=O)N[C@@H](Cc1c[nH]cn1)C(=O)N[C@@H](CCCCN)C(=O)NCC(=O)N[C@H](C(=O)N[C@H](C(=O)N[C@@H](CCSC)C(=O)N[C@@H](CCCCN)C(=O)N[C@@H](Cc1c[nH]c2ccccc12)C(=O)N[C@@H](CC(C)C)C(=O)N[C@@H](CC(N)=O)C(=O)N[C@@H](C)C(=O)NCC(=O)N[C@@H](CCC(N)=O)C(=O)N[C@H](C(=O)N[C@@H](Cc1ccccc1)C(=O)N[C@H](C(=O)N[C@@H](Cc1c[nH]c2ccccc12)C(=O)N[C@H](C(=O)N[C@@H](Cc1ccc(O)cc1)C(=O)N[C@@H](CCC(=O)O)C(=O)N[C@@H](CCC(N)=O)C(=O)N[C@H](C(=O)N[C@@H](CCCCN)C(=O)N[C@@H](CCCCN)C(=O)N[C@@H](CC(C)C)C(=O)N[C@@H](Cc1c[nH]c2ccccc12)C(=O)N[C@H](C(=O)O)[C@@H](C)O)[C@@H](C)CC)C(C)C)[C@@H](C)O)[C@@H](C)O)[C@@H](C)CC)[C@@H](C)O | broth microdilution | – | 37 °C, MRS medium | – | 31.3 µg/mL
CCCCCCC#Cc1cncc(-c2nnc(SCc3cc([N+](=O)[O-])cc([N+](=O)[O-])c3)n2C)c1 | – | vancomycin-resistant | – | no activity at value | ≥ 20 µg/mL
CN[C@H](CC(C)C)C(=O)N[C@H]1C(=O)N[C@@H](CC(N)=O)C(=O)N[C@H]2C(=O)NC3C(=O)N[C@H](C(=O)N[C@H](C(=O)NCCC[N+](C)(C)C)c4cc(O)cc(O)c4-c4cc3ccc4O)[C@H](O)c3ccc(c(Cl)c3)Oc3cc2cc(c3OC2OC(CO)C(O)[C@H](O)[C@@H]2O[C@H]2CC(C)(NCc3ccc(-c4ccc(Cl)cc4)cc3)[C@H](O)[C@H](C)O2)Oc2ccc(cc2Cl)[C@H]1O (stereo partly drawn) | – | ATCC BAA-2317 vanA | added: 100 µg/mL NaH2PO4 plus LTA | – | 0.3 µg/mL
CC[C@H](C)[C@H](N)C(=O)N[C@@H](CCCNC(=N)N)C(=O)N[C@H](C(=O)N[C@@H](Cc1c[nH]c2ccccc12)C(=O)N[C@@H](Cc1ccccc1)C(=O)N[C@H](C(=O)N[C@@H](CCCCN)C(=O)N[C@H](C(=O)N[C@@H](CCCNC(=N)N)C(=O)N[C@@H](CCCCN)C(=O)N[C@@H](Cc1c[nH]c2ccccc12)C(=O)N[C@@H](CCCCN)C(=O)N[C@@H](C)C(=O)N[C@H](C(=O)N[C@@H](Cc1ccc(O)cc1)C(=O)N[C@@H](Cc1c[nH]cn1)C(=O)N[C@H](C(N)=O)[C@@H](C)O)[C@@H](C)CC)C(C)C)[C@@H](C)CC)C(C)C | broth dilution | KCTC 13225 | – | – | 50 µM
CC[C@H](C)[C@H](NC(=O)[C@H](CC(C)C)NC(=O)[C@H](CCCNC(=N)N)NC(=O)[C@@H](N)CCCNC(=N)N)C(=O)N[C@@H](CCCNC(=N)N)C(=O)N[C@H](C(=O)N[C@@H](CC(=O)O)C(=O)N[C@H](C(=O)NCC(=O)N1CCC[C@H]1C(=O)N[C@H](C(=O)N[C@H](C(=O)N[C@@H](Cc1ccc(O)cc1)C(=O)N[C@@H](CC(=O)O)C(=O)N[C@@H](Cc1ccc(O)cc1)C(=O)N[C@@H](Cc1ccccc1)C(=O)N[C@@H](CCCCN)C(=O)N[C@@H](CC(=O)O)C(=O)N[C@@H](CCC(N)=O)C(=O)N[C@@H](CC(C)C)C(=O)N[C@@H](CC(C)C)C(=O)N[C@@H](CCCCN)C(=O)N[C@@H](CCCCN)C(N)=O)[C@@H](C)CC)[C@@H](C)CC)[C@@H](C)O)[C@@H](C)O | – | ATCC 51559, vancomycin-resistant, Mueller-Hinton broth | 24 h | – | > 128 µM
CCCCCCCCCC(=O)N[C@@H](Cc1c[nH]c2ccccc12)C(=O)N[C@H](CC(N)=O)C(=O)N[C@@H](CC(=O)O)C(=O)N[C@@H]1C(=O)NCC(=O)N[C@@H](CCCN)C(=O)N[C@@H](CC(=O)O)C(=O)N[C@H](C)C(=O)N[C@@H](CC(=O)O)C(=O)NCC(=O)N[C@H](CO)C(=O)N[C@@H]([C@H](C)CC(=O)O)C(=O)N[C@@H](CC(=O)c2ccccc2N)C(=O)O[C@@H]1C | – | resistant isolate | 16 h, added: Ca2+ 0 mM | – | > 128 µg/mL
CN[C@H](CC(C)C)C(=O)N[C@H]1C(=O)N[C@@H](CC(N)=O)C(=O)N[C@H]2C(=O)N[C@H]3C(=O)N[C@H](C(=O)N[C@H](C(=O)O)c4cc(O)cc(O)c4-c4cc3ccc4O)[C@H](O)c3ccc(c(Cl)c3)Oc3cc2cc(c3O[C@@H]2O[C@H](CO)[C@@H](O)[C@H](O)[C@H]2O[C@H]2C[C@](C)(N)[C@H](O)[C@H](C)O2)Oc2ccc(cc2Cl)[C@H]1O | – | BAA-2317, vanA | – | – | 250 µg/mL
CCCCCCC#Cc1cncc(-c2nnc(SCc3ccc(Cl)cc3)n2CCCN)c1 | broth microdilution | ATCC 51559 MDR VRE | 18 to 24 h, 37 °C | – | 8 µg/mL
CC[C@H](C)[C@H](NC(=O)[C@H](CC(C)C)NC(=O)[C@H](CCCNC(=N)N)NC(=O)[C@@H](N)CCCNC(=N)N)C(=O)N[C@@H](CCCNC(=N)N)C(=O)N[C@@H](CCCCN)C(=O)N[C@@H](CC(C)C)C(=O)N[C@@H](CCCCN)C(=O)NCC(=O)N1CCC[C@H]1C(=O)N[C@@H](CCCCN)C(=O)N[C@H](C(=O)N[C@@H](Cc1ccc(O)cc1)C(=O)N[C@@H](CC(C)C)C(=O)N[C@@H](Cc1ccc(O)cc1)C(=O)N[C@@H](Cc1ccccc1)C(=O)N[C@@H](CCCCN)C(=O)N[C@@H](CC(C)C)C(=O)N[C@@H](CCC(N)=O)C(=O)N[C@@H](CC(C)C)C(=O)N[C@@H](CC(C)C)C(=O)N[C@@H](CCCCN)C(=O)N[C@@H](CCCCN)C(N)=O)[C@@H](C)CC | – | ATCC 51559, vancomycin-resistant, Mueller-Hinton broth | 24 h | – | 8 µM

Excerpt of the above:
SMILES | test | system | conditions | scale | MIC
CC[C@H](C)[C@H](NC(=O)[C@H](CCCCN)NC(=O)[C@@H](NC(=O)[C@H](Cc1ccc(O)cc1)NC(=O)[C@H](CCCCN)NC(=O)[C@H](CCCCN)NC(=O)CNC(=O)[C@H](CCCCN)NC(=O)[C@@H](NC(=O)[C@H](C)NC(=O)[C@H](CC(C)C)NC(=O)[C@H](Cc1c[nH]c2ccccc12)NC(=O)CNC(=O)[C@@H](NC(=O)[C@H](Cc1ccccc1)NC(=O)[C@H](CCCCN)NC(=O)[C@H](CC(C)C)NC(=O)[C@H](Cc1ccccc1)NC(=O)[C@H](C)NC(=O)CNC(=O)[C@@H](N)CCSC)C(C)C)[C@@H](C)O)C(C)C)C(=O)N[C@@H](C)C(=O)N[C@@H](Cc1c[nH]c2ccccc12)C(=O)N[C@@H](CC(=O)O)C(=O)N[C@@H](Cc1c[nH]cn1)C(=O)N[C@@H](CCCCN)C(=O)NCC(=O)N[C@H](C(=O)N[C@H](C(=O)N[C@@H](CCSC)C(=O)N[C@@H](CCCCN)C(=O)N[C@@H](Cc1c[nH]c2ccccc12)C(=O)N[C@@H](CC(C)C)C(=O)N[C@@H](CC(N)=O)C(=O)N[C@@H](C)C(=O)NCC(=O)N[C@@H](CCC(N)=O)C(=O)N[C@H](C(=O)N[C@@H](Cc1ccccc1)C(=O)N[C@H](C(=O)N[C@@H](Cc1c[nH]c2ccccc12)C(=O)N[C@H](C(=O)N[C@@H](Cc1ccc(O)cc1)C(=O)N[C@@H](CCC(=O)O)C(=O)N[C@@H](CCC(N)=O)C(=O)N[C@H](C(=O)N[C@@H](CCCCN)C(=O)N[C@@H](CCCCN)C(=O)N[C@@H](CC(C)C)C(=O)N[C@@H](Cc1c[nH]c2ccccc12)C(=O)N[C@H](C(=O)O)[C@@H](C)O)[C@@H](C)CC)C(C)C)[C@@H](C)O)[C@@H](C)O)[C@@H](C)CC)[C@@H](C)O | broth microdilution | – | 37 °C, MRS medium | – | 31.3 µg/mL
